Published values pooled from the literature.
Numbered parts are unrelated; each lists some results of a single study. Values joined by “and” are separate records of one study, mostly repeats; a detail may differ.
Sequence of UniProt P21918 (whole entry, looked up): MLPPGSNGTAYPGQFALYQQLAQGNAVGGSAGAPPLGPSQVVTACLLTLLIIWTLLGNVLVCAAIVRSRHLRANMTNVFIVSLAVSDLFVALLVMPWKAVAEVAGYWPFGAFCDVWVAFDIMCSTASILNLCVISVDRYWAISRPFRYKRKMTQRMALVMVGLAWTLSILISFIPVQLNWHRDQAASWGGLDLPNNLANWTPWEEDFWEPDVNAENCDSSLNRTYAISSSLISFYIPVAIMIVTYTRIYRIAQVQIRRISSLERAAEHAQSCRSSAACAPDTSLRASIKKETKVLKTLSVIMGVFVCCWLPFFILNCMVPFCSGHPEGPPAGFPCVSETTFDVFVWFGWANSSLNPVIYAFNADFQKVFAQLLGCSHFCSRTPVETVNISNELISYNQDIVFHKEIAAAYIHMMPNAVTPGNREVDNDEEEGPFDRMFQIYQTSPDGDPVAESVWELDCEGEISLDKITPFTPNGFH
Sequence of UniProt P41143 (whole entry, looked up): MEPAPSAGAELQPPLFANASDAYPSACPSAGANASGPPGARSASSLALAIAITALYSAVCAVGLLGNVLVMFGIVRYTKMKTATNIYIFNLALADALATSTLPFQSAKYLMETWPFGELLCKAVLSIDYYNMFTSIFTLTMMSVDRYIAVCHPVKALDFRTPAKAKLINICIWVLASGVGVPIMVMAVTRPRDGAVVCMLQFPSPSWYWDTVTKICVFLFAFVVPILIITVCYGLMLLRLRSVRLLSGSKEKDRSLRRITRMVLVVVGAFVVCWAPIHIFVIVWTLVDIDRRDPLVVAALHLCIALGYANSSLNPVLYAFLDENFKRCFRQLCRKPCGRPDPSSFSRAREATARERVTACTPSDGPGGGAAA
Sequence of UniProt P15735 (whole entry, looked up): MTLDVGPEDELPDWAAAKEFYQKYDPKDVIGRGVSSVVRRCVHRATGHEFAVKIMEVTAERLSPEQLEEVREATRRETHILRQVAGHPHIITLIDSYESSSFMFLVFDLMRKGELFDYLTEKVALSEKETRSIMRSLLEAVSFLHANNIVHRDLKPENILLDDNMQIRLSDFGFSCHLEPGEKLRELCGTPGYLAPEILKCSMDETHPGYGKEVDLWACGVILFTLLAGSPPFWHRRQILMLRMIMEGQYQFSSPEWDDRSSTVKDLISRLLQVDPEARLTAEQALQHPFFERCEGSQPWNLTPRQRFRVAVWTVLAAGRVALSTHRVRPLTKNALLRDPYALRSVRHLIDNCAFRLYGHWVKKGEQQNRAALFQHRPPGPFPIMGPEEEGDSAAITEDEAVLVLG
Sequence of UniProt Q92630 (whole entry, looked up): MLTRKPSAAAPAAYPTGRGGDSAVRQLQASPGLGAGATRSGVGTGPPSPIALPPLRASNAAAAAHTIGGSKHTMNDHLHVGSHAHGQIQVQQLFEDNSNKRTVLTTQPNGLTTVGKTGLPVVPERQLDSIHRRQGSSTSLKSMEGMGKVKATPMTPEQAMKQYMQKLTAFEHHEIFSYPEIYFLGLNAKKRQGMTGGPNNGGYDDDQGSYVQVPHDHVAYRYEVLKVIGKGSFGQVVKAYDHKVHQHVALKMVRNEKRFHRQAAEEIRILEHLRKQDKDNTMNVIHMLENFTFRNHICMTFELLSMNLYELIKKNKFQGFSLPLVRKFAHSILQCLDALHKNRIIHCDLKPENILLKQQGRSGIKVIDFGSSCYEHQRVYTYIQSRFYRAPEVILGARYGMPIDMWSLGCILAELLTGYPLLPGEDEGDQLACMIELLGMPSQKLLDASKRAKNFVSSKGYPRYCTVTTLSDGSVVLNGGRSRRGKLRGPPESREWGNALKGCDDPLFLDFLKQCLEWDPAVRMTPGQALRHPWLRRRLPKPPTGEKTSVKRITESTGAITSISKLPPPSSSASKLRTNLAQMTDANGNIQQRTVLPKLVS
Sequence of UniProt O94806 (whole entry, looked up): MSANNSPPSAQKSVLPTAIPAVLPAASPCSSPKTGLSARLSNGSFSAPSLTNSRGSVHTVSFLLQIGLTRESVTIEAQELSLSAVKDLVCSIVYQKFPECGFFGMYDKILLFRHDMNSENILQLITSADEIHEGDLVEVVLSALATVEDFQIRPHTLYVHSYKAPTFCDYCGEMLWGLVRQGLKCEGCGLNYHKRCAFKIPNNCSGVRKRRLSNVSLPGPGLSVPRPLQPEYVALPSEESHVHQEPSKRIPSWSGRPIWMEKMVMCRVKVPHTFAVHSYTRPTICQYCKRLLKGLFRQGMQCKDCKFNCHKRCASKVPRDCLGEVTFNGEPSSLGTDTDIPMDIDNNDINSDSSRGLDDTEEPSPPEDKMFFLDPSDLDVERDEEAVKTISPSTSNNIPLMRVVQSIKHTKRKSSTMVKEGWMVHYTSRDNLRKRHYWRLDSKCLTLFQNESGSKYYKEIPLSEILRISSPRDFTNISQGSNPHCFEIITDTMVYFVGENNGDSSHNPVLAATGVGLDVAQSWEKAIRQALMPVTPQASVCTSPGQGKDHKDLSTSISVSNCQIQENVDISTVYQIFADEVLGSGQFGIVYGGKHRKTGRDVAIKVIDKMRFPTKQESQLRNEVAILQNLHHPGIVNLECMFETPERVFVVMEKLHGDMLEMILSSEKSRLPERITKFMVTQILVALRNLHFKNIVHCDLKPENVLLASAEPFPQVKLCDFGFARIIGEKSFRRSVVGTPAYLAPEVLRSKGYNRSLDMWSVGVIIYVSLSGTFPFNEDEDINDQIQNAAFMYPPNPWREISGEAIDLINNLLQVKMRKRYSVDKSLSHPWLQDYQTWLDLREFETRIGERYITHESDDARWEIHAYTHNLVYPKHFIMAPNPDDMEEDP
Sequence of UniProt Q16620 (whole entry, looked up): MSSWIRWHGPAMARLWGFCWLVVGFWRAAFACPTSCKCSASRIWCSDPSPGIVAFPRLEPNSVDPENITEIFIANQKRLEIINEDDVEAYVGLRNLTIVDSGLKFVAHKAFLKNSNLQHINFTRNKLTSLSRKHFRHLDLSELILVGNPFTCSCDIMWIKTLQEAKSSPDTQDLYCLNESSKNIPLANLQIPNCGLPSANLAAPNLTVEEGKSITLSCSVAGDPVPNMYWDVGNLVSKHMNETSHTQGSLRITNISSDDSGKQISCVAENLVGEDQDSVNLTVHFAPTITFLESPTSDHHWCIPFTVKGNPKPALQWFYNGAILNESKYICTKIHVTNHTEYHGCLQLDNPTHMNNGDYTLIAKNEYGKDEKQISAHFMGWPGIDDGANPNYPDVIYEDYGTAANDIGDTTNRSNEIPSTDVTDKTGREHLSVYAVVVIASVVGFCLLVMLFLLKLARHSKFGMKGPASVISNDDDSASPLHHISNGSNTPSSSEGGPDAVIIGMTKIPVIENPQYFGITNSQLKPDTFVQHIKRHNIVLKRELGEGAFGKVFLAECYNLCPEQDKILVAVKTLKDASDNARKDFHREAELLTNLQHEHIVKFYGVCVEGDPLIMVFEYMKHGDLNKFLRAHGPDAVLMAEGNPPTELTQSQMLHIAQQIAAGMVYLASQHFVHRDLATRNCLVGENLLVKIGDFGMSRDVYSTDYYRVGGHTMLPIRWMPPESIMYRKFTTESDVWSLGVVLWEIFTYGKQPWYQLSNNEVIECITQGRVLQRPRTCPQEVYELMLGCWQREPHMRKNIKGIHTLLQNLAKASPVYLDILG
Sequence of UniProt P35372 (whole entry, looked up): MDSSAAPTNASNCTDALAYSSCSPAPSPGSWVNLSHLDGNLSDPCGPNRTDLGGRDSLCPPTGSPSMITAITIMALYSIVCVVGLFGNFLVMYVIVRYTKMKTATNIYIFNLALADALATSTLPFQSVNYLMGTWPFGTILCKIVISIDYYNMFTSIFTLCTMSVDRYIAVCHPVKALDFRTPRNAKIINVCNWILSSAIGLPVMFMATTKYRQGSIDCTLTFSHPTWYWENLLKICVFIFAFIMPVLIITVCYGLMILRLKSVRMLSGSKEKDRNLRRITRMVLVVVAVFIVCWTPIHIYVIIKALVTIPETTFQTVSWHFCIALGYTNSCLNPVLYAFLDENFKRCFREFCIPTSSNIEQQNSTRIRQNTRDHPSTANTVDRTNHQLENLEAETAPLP

Series 1 — organism: Sarcocystis neurona; read-out: parasite activity; tested at: 10 µM; time: 96 h; endpoint: activity class
NC1=NC(=O)C(c2ccccc2)O1 (stereo not drawn): inactive
c1cncc([C@@H]2CCCN2)c1: inactive
CC(C)[C@]12O[C@H]1[C@@H]1O[C@]13[C@]1(O[C@H]1C[C@H]1C4=C(CC[C@@]13C)C(=O)OC4)[C@@H]2O: inactive
CN1C(=O)CN=C(c2ccccc2)c2cc(Cl)ccc21: inactive

Series 2 — read-out: enzyme activity; action: inhibitor; tested at: 0.5 µM; reference: control; endpoint: remaining activity
Compound: O=C1NC(=O)c2c1c1c3ccccc3n3c1c1c2c2ccccc2n1[C@H]1CC[C@@H]3O1
NTRK2 (Homo sapiens, UniProt Q16620): 6.87%
PHKG2 (Homo sapiens, UniProt P15735): 75.6%
DYRK2 (Homo sapiens, UniProt Q92630): 5.94%
PRKD3 (Homo sapiens, UniProt O94806): -0.0451%

Series 3 — read-out: ligand displacement; tested at: 10 µM; endpoint: inhibition
SMILES: CCS(=O)(=O)c1cc2cc(C[C@](O)(CC(C)(C)c3ccc(F)cc3C(N)=O)C(F)(F)F)[nH]c2cn1
OPRD1 (Homo sapiens, UniProt P41143): -2.58%
OPRM1 (Homo sapiens, UniProt P35372): 7.51%
DRD5 (Homo sapiens, UniProt P21918): 34.2%

Single results of other studies
CC(C)S(=O)(=O)c1cc2c(Nc3ccc4sc(C5CCCC5)nc4c3)ccnc2cc1OCCO  survival (L929 RIPK3-/- reexpressing RIPK3 K51A; CCK-8; 50 µM, added: zVAD): 11.8% and 13.5% and 13.1% and 11.4% and 12.9%
